Experimental data pooled from the literature.
Compare with care: the assays were run in different laboratories. “And” joins repeats or separate records; there may be more than shown. ± gives the spread as reported.

CCCC[C@H]1C(=O)N(C)[C@@H](CCCC)C(=O)N[C@@H](CCCNC(=O)CN2CCN(CC(=O)O)CCN(CC(=O)O)CCN(CC(=O)O)CC2)C(=O)N[C@H](C(=O)NCC(N)=O)CSCC(=O)N[C@@H](Cc2ccc(O)cc2)C(=O)N(C)[C@@H](C)C(=O)N[C@@H](CC(N)=O)C(=O)N2CCC[C@H]2C(=O)N[C@@H](Cc2c[nH]cn2)C(=O)N[C@@H](CC(C)C)C(=O)N(C)CC(=O)N[C@@H](Cc2c[nH]c3ccccc23)C(=O)N[C@@H](CO)C(=O)N[C@@H](Cc2c[nH]c3ccccc23)C(=O)N1C [gallium-68 labelled] — tissue uptake (NOD/SCID mice with CHO-hPD-L1 xenograft, kidney; 30 min post injection): 24.3 ± 0.73 %ID/g
CC(C)C[C@@H](NC(=O)[C@@H](CCCNC(=N)N)NC(=O)[C@@H](Cc1c[nH]cn1)NC(=O)[C@@H](Cc1c[nH]c2ccccc12)NC(=O)[C@@H](Cc1c[nH]cn1)NC(=O)[C@@H](Cc1ccccc1)NC(=O)[C@H](NC(=O)[C@@H](Cc1ccc(O)cc1)NC(=O)CNC(=O)CNC(=O)CCOCCOCCOCCNC(=O)CN1CCN(CC(=O)O)CCN(CC(=O)O)CC1)[C@H](C)O)C(=O)N[C@H](CC(N)=O)C(=O)N1CCC[C@@H]1C(=O)O [gallium-68 labelled] — tissue uptake (gamma counting; C57BL/6 mice, male, heart; intravenous, 1.85 MBq, 120 min): 0.67 ± 0.12 %ID/g
CCn1ccc(-c2cc([C@@H](C)NC(=O)c3cc(N4CC5CCC(C4)N5C)ccc3C)c3ccccc3n2)n1 — viability (Vero E6; 125 µM): 1.14% and -0.142% and -0.997%
CC[C@H](C)[C@H](NC(=O)[C@H](CCCCN)NC(=O)CNC(=O)[C@H](CC(C)C)NC(=O)[C@H](Cc1ccccc1)NC(=O)[C@H](CCCCN)NC(=O)[C@H](CO)NC(=O)[C@H](Cc1ccccc1)NC(=O)[C@H](Cc1c[nH]c2ccccc12)NC(=O)[C@H](CCC(N)=O)NC(=O)[C@@H](NC(=O)[C@H](Cc1ccccc1)NC(=O)CCCCCNC(=O)CN1CCN(CC(=O)O)CCN(CC(=O)O)CCN(CC(=O)O)CC1)C(C)C)C(=O)N[C@@H](CCC(=O)O)C(=O)N1CCC[C@H]1C(=O)N[C@@H](CC(=O)O)C(=O)N[C@H](C(=O)N[C@@H](CO)C(=O)N[C@@H](CCC(N)=O)C(=O)N[C@H](C(=O)N[C@@H](CCC(N)=O)C(=O)N[C@@H](CC(=O)O)C(=O)N1CCC[C@H]1C(=O)N[C@@H](CC(N)=O)C(=O)N[C@@H](CC(=O)O)C(=O)N[C@@H](CCC(N)=O)C(=O)N[C@@H](Cc1ccc(O)cc1)C(=O)N[C@@H](CCC(=O)O)C(=O)N1CCC[C@H]1C(=O)N[C@@H](Cc1ccccc1)C(=O)O)C(C)C)C(C)C [copper-64 labelled] — tissue uptake (C57BL/6 mice, male, tumour-free, small intestine; 4 h): 9.98 ± 1.7 %ID/g
O=C1NC2(CC2)COc2ncc(F)cc2[C@H]2COCCN2c2ccn3ncc1c3n2 — organ-to-body weight ratio (Sprague-Dawley rat, female, adrenals; oral, 2.5 mg/kg/day, 4 weeks, end of treatment): 0.022 ± 0.003%
Cc1ccc(OCCN(C)C)cc1C(=O)N[C@H](C)c1cc(-c2cnn(CC(C)(C)O)c2)nc2ccccc12 — viability (Vero E6; 31.25 µM): 111% and 109%
C[C@H](O)[C@@H](NC(=O)[C@H]1CCCN1C(=O)[C@@H](CCCCN)NC(=O)[C@@H](CO)NC(=O)[C@@H](Cc1ccc(O)cc1)NC(=O)[C@@H](CC(N)=O)NC(=O)CCOCCOCCOCCNC(=O)CN1CCN(CC(=O)O)CCN(CC(=O)O)CCN(CC(=O)O)CC1)C(=O)N[C@H](CC(=O)O)C(=O)N[C@H](CCCNC(=N)N)C(=O)N[C@H](CCC(N)=O)C(=O)N[C@H](Cc1ccc(O)cc1)C(=O)N[C@H](Cc1c[nH]cn1)C(=O)N[C@H](Cc1ccccc1)C(N)=O [copper-64 labelled] — tissue uptake (C57BL/6J mice, heart; intravenous, 1.85 MBq, 0.3333 h, radiolabelled): 0.81 ± 0.15 %ID/g
CC[C@H](C)[C@H](NC(=O)[C@H](CCCNC(=N)N)NC(=O)[C@H](CCCCN)NC(=O)[C@H](Cc1ccc(O)cc1)NC(=O)[C@H](CC(=O)O)NC(=O)[C@H](C)NC(=O)CNC(=O)CCOCCOCCOCCNC(=O)CN1CCN(CC(=O)O)CCN(CC(=O)O)CCN(CC(=O)O)CC1)C(=O)N[C@H](C(=O)N[C@H](C(=O)N[C@@H](CCCCN)C(=O)N[C@H](C(=O)N[C@@H](CC(N)=O)C(N)=O)C(C)C)C(C)C)[C@@H](C)O [copper-64 labelled] — tissue uptake (ex vivo gamma counting; C57BL/6J male mice, B16-F10 tumour, kidney; intravenous, 1.85 MBq, 100 min): 8.96 ± 0.701 %ID/g
CSCC[C@H](NC(=O)CNC(=O)[C@H](CCCCN)NC(=O)[C@H](CC(C)C)NC(=O)[C@@H]1CCCN1C(=O)[C@H](CO)NC(=O)[C@H](Cc1c[nH]cn1)NC(=O)[C@H](Cc1c[nH]c2ccccc12)NC(=O)[C@H](CCCNC(=N)N)NC(=O)[C@H](CC(C)C)NC(=O)[C@H](CCCNC(=N)N)NC(=O)[C@H](Cc1c[nH]c2ccccc12)NC(=O)[C@H](CS)NC(=O)CCCCCNC(=O)CN1CCN(CC(=O)O)CCN(CC(=O)O)CCN(CC(=O)O)CC1)C(=O)O [copper-64 labelled] — tissue uptake (ex vivo biodistribution; male C57BL/6J mice, bone; intravenous, 1.85 MBq, 18 h, B16-F10 tumour-bearing): 1.29 %ID/g
CC[C@H](C)[C@H](NC(=O)[C@H](CCCNC(=N)N)NC(=O)[C@H](CCCCN)NC(=O)[C@H](Cc1ccc(O)cc1)NC(=O)[C@H](CC(=O)O)NC(=O)[C@H](C)NC(=O)CNC(=O)CCOCCOCCOCCNC(=O)CN1CCN(CC(=O)O)CCN(CC(=O)O)CCN(CC(=O)O)CC1)C(=O)N[C@H](C(=O)N[C@@H](CC(C)C)C(=O)N[C@@H](CCCCN)C(=O)N[C@H](C(=O)N[C@@H](CC(N)=O)C(N)=O)C(C)C)[C@@H](C)O [copper-64 labelled] — tissue uptake (ex vivo gamma counting; male C57BL/6J mouse, B16-F10 tumour, intestinal lymph node; intravenous, 1.85 MBq, 40 min): 0.479 ± 0.123 %ID/g
CN1Cc2cc(Cl)ccc2-n2c(nnc2C2CCN(c3cccc([18F])n3)CC2)C1 — tissue uptake (C57BL/6 mouse male, blood; intravenous, 3.7 MBq, 1 min): 5.66 ± 2.07 %ID/g

Excerpt of the above:
C[C@H](O)[C@@H](NC(=O)[C@H]1CCCN1C(=O)[C@@H](CCCCN)NC(=O)[C@@H](CO)NC(=O)[C@@H](Cc1ccc(O)cc1)NC(=O)[C@@H](CC(N)=O)NC(=O)CCOCCOCCOCCNC(=O)CN1CCN(CC(=O)O)CCN(CC(=O)O)CCN(CC(=O)O)CC1)C(=O)N[C@H](CC(=O)O)C(=O)N[C@H](CCCNC(=N)N)C(=O)N[C@H](CCC(N)=O)C(=O)N[C@H](Cc1ccc(O)cc1)C(=O)N[C@H](Cc1c[nH]cn1)C(=O)N[C@H](Cc1ccccc1)C(N)=O [copper-64 labelled] — tissue uptake (C57BL/6J mice, heart; intravenous, 1.85 MBq, 0.3333 h, radiolabelled): 0.81 ± 0.15 %ID/g
